Measurements from different studies.
Parts stem from different laboratories: compare values within a part only.

Study 1
Target: Hepatocyte nuclear factor 3-alpha (Foxa1, Mus musculus, UniProt P35582, residues 1-468, full length assumed)
Sequence of UniProt P35582 (whole entry, looked up): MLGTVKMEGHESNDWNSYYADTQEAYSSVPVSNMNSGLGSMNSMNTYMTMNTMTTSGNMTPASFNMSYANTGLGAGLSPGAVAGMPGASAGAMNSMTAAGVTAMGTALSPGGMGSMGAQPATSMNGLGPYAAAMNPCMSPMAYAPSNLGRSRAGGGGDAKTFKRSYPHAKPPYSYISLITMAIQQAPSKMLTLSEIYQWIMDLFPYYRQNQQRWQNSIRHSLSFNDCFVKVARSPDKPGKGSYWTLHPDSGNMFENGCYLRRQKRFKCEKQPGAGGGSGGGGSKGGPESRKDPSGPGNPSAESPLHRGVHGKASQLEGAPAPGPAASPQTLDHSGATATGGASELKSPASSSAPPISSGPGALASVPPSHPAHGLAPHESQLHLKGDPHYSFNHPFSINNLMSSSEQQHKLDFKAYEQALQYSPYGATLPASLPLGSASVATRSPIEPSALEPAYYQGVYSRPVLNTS
Method: EMSA with sequencing
Form: double-stranded DNA, one strand shown
Matrix: in vitro
Concentration: 10 and 20 nM
Notes: whole designed probe, mean of two concentrations, ends assumed
Relative to: negative control set to 0
Direction: higher = stronger binding
Shared flanks, not repeated: GTGAGCGGTGCCCATTGATGGGGAAC … TTTCACTGGGATCGTGGGGAC
Strand | normalised bound fraction [ratio]
AGAAGAATAACCAGTGGGGCCAGTCAGGGATGCTTCAGATGTCACAGCAGTACTATGGGCAGCAAGTCTCAATGCAAGGACACTGGTACAATGTAAACAAGCATATTCCATACCACTGTGTCATTTTATATCTGTTAAATGGCAAAAGGCCTGTAGTATCCCTAAAGGAAAGTAAAGCTTAAGGCCACTTTTC | 0.408
ACATATGACCATTTTTTGGTTTATGTTTGGTCCCCTCTGATTGTTACATATACTTGAATTGCTTGCTTGGATGGGGAGCATACAAAATAATTAAGTAAACATGAAGAAAAGTAGCTTGATTCGTTGCTAGGCTGAAGGATCACATAGAAAAGTTTTTTTCCAATTGCCCAAAATTAAGTACAAATACACACAT | 0.38
CTCCACAATATTGCAATAAACTAAATATTATAATAAGATGGCTTTGATTATTCTGTGTCCTAAAATGTGCTTATTTTCTATTCTTTTTTGTCCTAGATTACATTTAAAATTATACAACTGTCAGTGTTGATTTATAAGATAGAATGTACATATAAACTGGATCTCTGTCTCAGAGTAAGGAGGTGGAAAGAAA | 0.169
GGTTAGAGGAAGTAAGGTAATGCAAGTGTTAAATTATGTGTGAAAGATGGGATGCCTGGAAGAAATTCATATCACAAATATTACAGAAAGATAAGTAATCTGGGATTTAATATTCATGGATTTTTCTCCTATTTTATTTAAAATGTCAGACCTGTCTTAATGAGGTTCTACTGACATTTATTCTTTTTTAATT | -0.00321
TACTGATATAAAAATAGGCATATAGACCAATGGAACAGAATAGAGAACCCAGAAATAAAACCAAATACTTACAGCCAACAGATTTTTGACAAAGCAAACAAAAACATGAAGTGGGGAAAGGAAACCCTATTGAACAAATAATGGAGGGATGTTTAGCAAGCCACATGTAGAAGAATAAAACTGGAAACTCATC | 0.483
CAAGTTTGTGGTCCAGGAGCAACAGGTTATGCCATACAGCCTAGGTGTGTAGTAGGCTACACACCGTCTATGTTTGTGTTGTACACTCTTTGTGCAAACATTGTTGATGAAATCTTCCATGACTCATCTCAGAACATACCCCTGTTGTTAAGCGATACATGACTGTACTTTTTTTAAAAAGTCCAAGGATATA | 0.416
ATGAAGGGCTGCCAGTGTAATTTGAACCTCAAATAAACAACAGATAAAACTGTAGTATAAGTATGTCCCATATACGATCATTGCACAACTTTTTGTTTGCCTAATCTGGCAAAGATATTGACTTAACACACACTAATCTGTTGACAGGTAGGTGAAATATTTGAACTTCTACGTTGCTTCTCTAATCCTGTCC | 0.39
GTGGAAATGACTATTCATTATGCGGAAGAATAAGACTTTATAAGAATAGTATTTCCCTAAGCAGGCACAGCACTTGAGAAGGTTACAGAATACCTGTTTACTCTGCTAACCTAATTCTCTGTCGATTTCTCTTGTCAATGCCTTTTGATATTTTGACACAGAATGTTCTACCTAGGACCACTCTGCTGAATAT | 0.0953

Study 2
Target: RING finger protein unkempt homolog, zinc fingers 1-6, GST-SBP tag (UNK, Homo sapiens, UniProt Q9C0B0, residues 30-357)
Method: RNA Bind-n-Seq
Form: RNA
Matrix: in vitro
Concentration: not given
Notes: RNA with constant flanks, human-mouse chimeric sites, ends assumed
Relative to: input RNA pool
Direction: higher = stronger binding
Shared flanks, not repeated: GGGAGUUCUACAGUCCGACGAUC … CAACAGAGGAUUGAGCAUCA
Construct (chain): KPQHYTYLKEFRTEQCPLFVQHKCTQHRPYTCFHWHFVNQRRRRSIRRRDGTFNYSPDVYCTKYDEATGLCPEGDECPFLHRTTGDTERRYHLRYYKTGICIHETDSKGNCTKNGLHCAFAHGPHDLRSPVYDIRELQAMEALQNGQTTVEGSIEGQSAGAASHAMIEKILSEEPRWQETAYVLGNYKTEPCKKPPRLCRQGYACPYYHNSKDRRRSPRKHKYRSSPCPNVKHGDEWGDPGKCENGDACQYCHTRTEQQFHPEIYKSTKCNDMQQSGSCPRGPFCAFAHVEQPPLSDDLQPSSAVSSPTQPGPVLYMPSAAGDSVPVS
Strand | bound/input enrichment [ratio]
GAUCAUGGAACCAGAAUAGAAAUGAAGAUGAGAUUACCCAGACGAGCCAAAACAGCUGCGCUACAGAAAAGUAAACUUAACCUUGCACCAAUUUCUCAUGAAGAUACAAGUUAAGAGAGC | 0.63
UGACAAGGGCACUGCAGAGCCAUGCCUUUCCUUGACAUACAGAAAAAGCUGGGCAUCAACAUAGAUCGGCACUUUAUGUUCCUAAGCGCAGAACAGCCCUAUAAGAAGGCUGGUCGAUGC | 0.121
AACAGAUUUCUCAAGCACAUUCCAAGCGAGAAUGCUGGGGUGAUCAUUGUUGCCCAUAUAUAGUAAUACUGAGCUUUAAUGCUGUUCCAUGUUACAUCUUUCCUUCACUCCAGAAUUGUU | 0.512
GGCCUGGACCUUCCUGGGGCUAGUACAAAUAGCGGCAGUGGAGGCUCGAGAGGAAAGUUGUUAGUGGGAGGCAGUGGUAGAGGCCGUCAUGUACGGUCCUUUACUCGAUAGAUGUGUUCU | 0.29
GCGGCAGAAUCAUGGAGGACAUAAUGCACUUGCCCAGAGCGCGCGUCAACGCCAGCAUGUUACCACAGUAUAUCGACCGGCCCGUGUGCUUCGUGGGGAAGCUGGAAAAGAUUCAUCCCA | 0.0839
GUCAACAGCUGCCUCAACCCCAUCCUCUAUGCUUUCUUGGAUGAGAACUUCAAGGCCUGCUUCCGCAAGUUCUGCUGUGCAUCUGCCCUGCGCCGGGAGAUGCAGGUGUCUGACCGCGUG | 0.297
GGAUUCCGGUUCCGGUGCCGUUGGGCUCGGUUCUCUCCUGAGCUACGUGUCUCUACGCUCUCAAUCCGCCAUCCAACAAACAUGGAUCAGGUAAUGCAGUUUGUGGAGCCCAGCCGGCAG | 0.0494
AGAGAAAUGAGAAAGAAUCUUACACAAGAAGAGAUGCAAAGAAUGUCUACUAGAGUCCUUUUGGCGACUCUUUCCAUUCCUAUUACUCCUGAGCGUACGGAUAUUGCUCGACUUUUGGAU | 0.125
UGUAACUUAUCUGUAAAAGGUUCCCCCCCCCUACUGUAAAAAAAUAUGCAUGUAUAGUAAUUAGGACUUCAUUCCUCCAUGUUUUCUUCCCUUAUCUUACUGUCAUUGUCCUUAAACCUU | 5.29
UUAAUCCCCUUUACUGCUCCCCCACUUCUCAUGGUAAUAACAAAGUCUUAUAUCCCCAUAUUAGCUUUUACUCAGAUGGCUUAUGGAGCCGGUUUCCUAGCUUUCUUGGGAGGGAUCAGA | 0.768
AAAGCCCUUGAAGAAAAAAAAAACUCGAACAGAUUUGACAAGGGUAGCCAGCUUGGAGUCUAGCAACUUGCCAAUGUGUUUACCAAUCUGGGGGCUUGUUUUUCUUUUCUUCUUUCAAAU | 0.421

Study 3
Target: Histone acetyltransferase KAT6A, winged helix 1, GST fusion (KAT6A, Homo sapiens, UniProt Q92794, residues 1-85)
Method: protein binding microarray
Form: double-stranded DNA, one strand shown
Matrix: in vitro
Concentration: not given
Notes: 8-mer, flanks averaged, mean of 2 arrays, mostly near background
Relative to: not given
Direction: higher = stronger binding
Residues (chain): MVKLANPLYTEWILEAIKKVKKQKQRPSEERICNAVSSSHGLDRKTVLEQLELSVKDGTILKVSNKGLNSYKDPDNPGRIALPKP
Strand | E-score
GAAGGGCC | -0.0315
AGCGCAGG | 0.268
ATGCAGTG | -0.203
AAAGTGAT | -0.229
CCCAAGTA | -0.11
ATAAGCGG | 0.14
CACATCGC | 0.077
ATTCGTGG | -0.231
CCTTTATC | -0.113
AAGGGTCC | 0.0961
CATCCATA | -0.0607
AGCGATCC | 0.087
ACCACAAA | -0.194
AGCACATC | -0.139
ACCCTATA | -0.241
GGGGGGAA | -0.0855
ACAGACGT | -0.00783
AGGGTCTA | -0.0462
TAAAAATA | -0.17
AGGAACAA | -0.182

Study 4
Target: RNA binding protein fox-1 homolog 2, RRM domain, GST-SBP tag (RBFOX2, Homo sapiens, UniProt O43251-10, residues 100-194)
Method: RNA Bind-n-Seq
Form: RNA
Matrix: in vitro
Concentration: 365 nM
Notes: natural RNA segment, single round, ends assumed
Relative to: no-protein control
Direction: higher = stronger binding
Shared flanks, not repeated: GGGAGUUCUACAGUCCGACGAUC … UGGAAUUCUCGGGUGCCAA
Target sequence (chain): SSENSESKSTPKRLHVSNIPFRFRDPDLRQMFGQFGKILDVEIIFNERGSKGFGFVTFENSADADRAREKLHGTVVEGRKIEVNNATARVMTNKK
Strand | RBNS enrichment (R)
CUUCAUAGCAGCAGUAGUGGCUUCUCCAUCCUGUUUUCUGCAACAUUCUAUACAAAACUGUGCUGUGACCUUGCGGUAGGCCUGGAUCUGGCAAAGAGAAUACAAAUGAA | 1.24
UCCCCUCUCUUGUCUCCAUUAUUUUAAUUGCUUUUUCUGGCAGCACGGUGGGGACAGGGCAGAUUUAUGAGAAAUAUCAAUUGCCCCUCUCUUCUGGACCAAUUCCUUAA | 0.453
AUGUGACCAGGUGUCGUCCUGCAUGUAAAUCUCCGAGCUGAGUCUGACUCACAGCCCAUGCUGUCAUCUGUGGCACAAGUGGGUGUGAGUACGUCCUGCAUGCACUAACG | 2.04
GAGACACAUUGCCUUCUGCAGCUGGGAGACAGAGGAAGGAUUCCCUUUCUUCACCAAGUGCAAUAGAUUUCCUCAUCUGAUAGGCUGUUGCUUUACCGUCACACGCGAUG | 0.351
CAUGUGGCAACCUUUACUUCUAUGCCUCACAAGUGCCUUUCAGAGAGCCCCAAUUCUGCUUUCCCACAAAAUAAACCUAAUGCCAUCAGGCAAAACAUUUCUGUGUCUGU | 0.63
GGUUUUUUUAAGUUAUUUUAAAAAUCUAGCUUCCCUUUUUGAUUAAGAUUGCCAUCUUGCUUUUAGGCAAAACAAACCAAUUAACAAACAACCACAAGAAAGGGAGAAGA | 0.423
UCAAGAACAAAUCAUUGGCCCGUUAUAGCAAAUAGUUGCUUAAGUAGCAGUUGUCAUAGACUAAUCAUAAAAUAUUUUGCACAAAAUUUCAAUGUUGAACUUGCACUUAC | 0.71
CUCCCAACUUGUUUGUCCCUAGAAGCAGACAACUUUGAACCAAAAGCAUCUCAGUCAAGCAUCUAAAACAGGGGGCAGUCUGUGUAUACAAGAGCCCACCUCCUGCUGUG | 0.311
UUUUUGCAUUUUACUCACUUGAUAAGUCUGCUCCACUGGUUUCAUCAGAUAGACUUGCUGCUACUGGCUUUUCCAUUGUAGAUUGGGUUAUUUUACACGCAGUUCGCCAA | 1.52
UGUAACCAGAUGAAUCAUGAUUUCUAAGACUUCUGAUCAAAAAUACUGUGAAAUAAAGAAUGUUAAUAACUUUGGACCUGGAGAUGAUUUGCCUUUCUGAACAUAAGAGA | 1.98
GCCAGGCUGCCAGGAGAUCGCGGAGGAGUUCCGUGCGCAGGAGAUUGAUGGGCAAGCCUUGCUGCUGCUCAAGGAGGACCACCUAAUGAGCGCCAUGAACAUCAAGCUAG | 1.33
AAAAGUGACCUAGAAAGCCCAGUAGGAACCACAGAGCUCAAGCUGUCUGGCUCAAGUGGUGGAAGAGUGAGGGAGUCUGCAGUUUGUAAGUCUCGUUCUGUUGUGUUCUG | 1.3

Excerpt of the above (study 2):
Strand | bound/input enrichment [ratio]
GCGGCAGAAUCAUGGAGGACAUAAUGCACUUGCCCAGAGCGCGCGUCAACGCCAGCAUGUUACCACAGUAUAUCGACCGGCCCGUGUGCUUCGUGGGGAAGCUGGAAAAGAUUCAUCCCA | 0.0839
GUCAACAGCUGCCUCAACCCCAUCCUCUAUGCUUUCUUGGAUGAGAACUUCAAGGCCUGCUUCCGCAAGUUCUGCUGUGCAUCUGCCCUGCGCCGGGAGAUGCAGGUGUCUGACCGCGUG | 0.297
GGAUUCCGGUUCCGGUGCCGUUGGGCUCGGUUCUCUCCUGAGCUACGUGUCUCUACGCUCUCAAUCCGCCAUCCAACAAACAUGGAUCAGGUAAUGCAGUUUGUGGAGCCCAGCCGGCAG | 0.0494
AGAGAAAUGAGAAAGAAUCUUACACAAGAAGAGAUGCAAAGAAUGUCUACUAGAGUCCUUUUGGCGACUCUUUCCAUUCCUAUUACUCCUGAGCGUACGGAUAUUGCUCGACUUUUGGAU | 0.125
UGUAACUUAUCUGUAAAAGGUUCCCCCCCCCUACUGUAAAAAAAUAUGCAUGUAUAGUAAUUAGGACUUCAUUCCUCCAUGUUUUCUUCCCUUAUCUUACUGUCAUUGUCCUUAAACCUU | 5.29
UUAAUCCCCUUUACUGCUCCCCCACUUCUCAUGGUAAUAACAAAGUCUUAUAUCCCCAUAUUAGCUUUUACUCAGAUGGCUUAUGGAGCCGGUUUCCUAGCUUUCUUGGGAGGGAUCAGA | 0.768
